Earlier results, collected from citations in different studies.
Lines come from different studies, so protocols differ.
Chain of UniProt Q7KZI7 (whole entry, looked up): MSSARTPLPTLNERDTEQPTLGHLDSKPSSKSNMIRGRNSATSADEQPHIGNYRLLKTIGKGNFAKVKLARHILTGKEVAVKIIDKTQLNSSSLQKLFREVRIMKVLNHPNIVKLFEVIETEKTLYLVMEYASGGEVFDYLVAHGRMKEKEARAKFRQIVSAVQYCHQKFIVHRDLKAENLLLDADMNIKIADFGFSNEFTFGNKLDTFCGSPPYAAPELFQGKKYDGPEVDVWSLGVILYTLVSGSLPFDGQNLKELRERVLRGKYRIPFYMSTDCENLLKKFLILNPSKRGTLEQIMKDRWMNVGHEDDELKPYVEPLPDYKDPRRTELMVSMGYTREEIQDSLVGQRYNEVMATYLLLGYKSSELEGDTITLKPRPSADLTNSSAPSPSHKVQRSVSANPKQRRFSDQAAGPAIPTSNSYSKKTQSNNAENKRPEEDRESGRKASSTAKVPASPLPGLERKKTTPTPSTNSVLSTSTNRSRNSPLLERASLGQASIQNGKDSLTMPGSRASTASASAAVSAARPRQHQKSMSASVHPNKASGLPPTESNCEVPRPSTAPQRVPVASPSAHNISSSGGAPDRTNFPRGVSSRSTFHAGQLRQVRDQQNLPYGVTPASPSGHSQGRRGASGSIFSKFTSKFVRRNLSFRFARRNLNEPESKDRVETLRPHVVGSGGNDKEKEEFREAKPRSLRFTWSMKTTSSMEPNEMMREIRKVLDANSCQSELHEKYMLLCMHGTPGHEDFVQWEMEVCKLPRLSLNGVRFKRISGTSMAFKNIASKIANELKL

Compound	tested on	test	test system	setting	scale	measurement	result
O=C(O)CCc1nc(-c2ccccc2)c(-c2ccccc2)o1	–	–	plasma	concentration not given	–	unbound Cmax	5010 nM
O=C(NC[C@H]1CN(c2ccc(N3CCOCC3=O)cc2)C(=O)O1)c1ccc(Cl)s1	–	–	plasma	at Cmax, small group	–	unbound fraction in plasma	~10%
CCCCC(=O)N(Cc1ccc(-c2ccccc2-c2nnn[nH]2)cc1)[C@H](C(=O)O)C(C)C	–	–	plasma	concentration not given	–	unbound Cmax	850 nM
Nc1cc(C(F)(F)F)c(-c2nc(N3CCOCC3)nc(N3CCOCC3)n2)cn1	MARK2 (Homo sapiens, UniProt Q7KZI7)	enzyme activity	–	10 µM	relative to: untreated	remaining activity	87%
CC(O)C(C)n1ncn(-c2ccc(N3CCN(c4ccc(OCC5COC(Cn6cncn6)(c6ccc(Cl)cc6Cl)O5)cc4)CC3)cc2)c1=O (stereo not shown)	–	–	plasma	–	–	unbound fraction	0.0212
COC(=O)N[C@H](C(=O)N1CCC[C@H]1c1nc(-c2ccc3c(c2)O[C@@H](c2ccccc2)n2c-3cc3cc(-c4c[nH]c([C@@H]5CCCN5C(=O)[C@@H](NC(=O)OC)C(C)C)n4)ccc32)c[nH]1)C(C)C	–	–	plasma	–	–	unbound fraction	~1%
CC(O)C(C)n1ncn(-c2ccc(N3CCN(c4ccc(OCC5COC(Cn6cncn6)(c6ccc(Cl)cc6Cl)O5)cc4)CC3)cc2)c1=O (stereo not shown)	–	–	liver microsomes	–	–	unbound fraction in microsomes	1
CN(C(=O)C(C)(C)c1cc(C(F)(F)F)cc(C(F)(F)F)c1)c1cnc(N2C[C@H]3COCCN3C[C@H]2CO)cc1-c1ccc(F)cc1[14CH3]	–	–	plasma	–	–	unbound fraction	< 0.5%
N[C@@H]1c2cccnc2[C@H](OC(=O)N2CCC(n3c(=O)[nH]c4ncccc43)CC2)CC[C@H]1c1cccc(F)c1F	–	–	plasma	–	–	unbound fraction	4%
C[C@H]1CNC(=O)c2cnn3ccc(nc23)N[C@H](C)c2cc(F)ccc2O1	–	–	human plasma	prescribing information	–	unbound fraction	0.0467
C=CC(=O)N1C[C@H](Nc2ncnc3[nH]ccc23)CC[C@@H]1C	–	–	plasma	–	–	unbound fraction	0.86
C=C(CC)C(=O)c1ccc(OCC(=O)O)c(Cl)c1Cl	–	–	plasma	concentration not given	–	unbound Cmax	600 nM
C[C@H]1Oc2cc(cnc2N)-c2c(nn(C)c2C#N)CN(C)C(=O)c2ccc(F)cc21	–	–	human plasma	prescribing information	–	unbound fraction	0.345
C=C[C@@H]1C[C@]1(NC(=O)[C@@H]1C[C@@H]2CN1C(=O)[C@H](C(C)(C)C)NC(=O)O[C@@H]1C[C@H]1CCCCCc1nc3ccc(OC)cc3nc1O2)C(=O)NS(=O)(=O)C1CC1	–	–	plasma	–	–	unbound fraction	~1%
Cc1cccc(Nc2ccccc2C(=O)O)c1C	–	–	plasma	concentration not given	–	unbound Cmax	8300 nM
CCn1cc(-c2cc(Cn3ccnc3)cc3c2CCN([C@H](c2cc(OC)ccn2)C2CC2)C3=O)c(C(F)(F)F)n1	–	–	mouse whole blood	1 µM	–	unbound fraction	0.2%

For quick reference, copied from above:
Compound	tested on	test	test system	setting	scale	measurement	result
Cc1cccc(Nc2ccccc2C(=O)O)c1C	–	–	plasma	concentration not given	–	unbound Cmax	8300 nM
O=C(O)CCc1nc(-c2ccccc2)c(-c2ccccc2)o1	–	–	plasma	concentration not given	–	unbound Cmax	5010 nM
